# Measurements from different studies.
# Each numbered part is a random draw from the data of one study; scales do not carry over between parts.
# Chain of UniProt P46098 (whole entry, looked up): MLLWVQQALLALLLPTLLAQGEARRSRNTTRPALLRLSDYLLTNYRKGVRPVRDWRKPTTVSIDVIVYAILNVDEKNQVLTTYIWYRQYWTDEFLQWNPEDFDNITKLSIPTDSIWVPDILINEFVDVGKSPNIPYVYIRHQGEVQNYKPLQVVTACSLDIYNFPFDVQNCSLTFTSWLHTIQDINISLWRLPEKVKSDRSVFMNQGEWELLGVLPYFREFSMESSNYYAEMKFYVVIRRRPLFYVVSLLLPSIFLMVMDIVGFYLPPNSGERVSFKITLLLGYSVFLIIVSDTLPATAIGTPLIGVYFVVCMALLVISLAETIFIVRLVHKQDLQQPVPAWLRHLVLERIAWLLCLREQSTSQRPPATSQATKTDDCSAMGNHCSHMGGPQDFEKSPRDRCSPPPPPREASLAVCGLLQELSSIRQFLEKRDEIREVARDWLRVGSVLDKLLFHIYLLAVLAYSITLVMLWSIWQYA

# Block 1 — method: RNA Bind-n-Seq; molecule type: RNA; matrix: in vitro; concentration: 20 nM; setting: 6-mer, flanks averaged, single round; together with: 150 mM KCl; reference: input library; reading: higher = stronger binding
# Target: TAR DNA-binding protein 43, full length, His tag (TARDBP, Homo sapiens, UniProt Q13148, residues 1-414)
Strand,6-mer enrichment (R)
CAAAAC,0.602
CGCCGG,1.36
GGGAAC,2.11
GGGGGA,8.36
AAACUC,0.586
CGUAGU,0.748
UCGCGC,0.807
CAUCGG,0.92

# Block 2 — method: protein binding microarray; molecule type: double-stranded DNA, one strand shown; matrix: in vitro; concentration: not given; reference: not given; reading: higher = stronger binding
# Target: Histone acetyltransferase KAT6A, winged helix 2, GST fusion (KAT6A, Homo sapiens, UniProt Q92794, residues 85-181)
# Setting: 8-mer, flanks averaged, mean of 2 arrays, mostly near background
# Construct (chain): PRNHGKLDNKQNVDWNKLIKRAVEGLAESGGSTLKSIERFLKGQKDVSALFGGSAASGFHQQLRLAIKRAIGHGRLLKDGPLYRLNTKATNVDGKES
Strand,E-score
CTCTACTC,0.0101
CAGTTACG,-0.126
TAGAATAA,-0.0467
ACCCCTCA,-0.0825
CTCTGTTA,-0.0649
ACGGGCGA,0.0213
CTTCGCTC,0.201
AACTAACG,0.00739

# Mixed results
Structure (SMILES),target or system,test,system,conditions,endpoint,value
N#Cc1ccc(OC2CCC(Nc3ncnc(N)c3Cl)CC2)nc1 (stereo not drawn),,,"human, microsomes or S9","2 µM, 0.5 h",remaining compound,91%
CCOCCn1cc(C(=O)Nc2ccc(-n3nc(-c4cccnc4)cc3C(F)(F)F)cn2)ccc1=O,"HTR3A (Homo sapiens, UniProt P46098)","binding, radioligand binding",,10 µM,inhibition,2.27%

# Excerpt of the above (block 1):
Strand,6-mer enrichment (R)
GGGAAC,2.11
GGGGGA,8.36
AAACUC,0.586
